{"data": "Assay results from different studies", "LCK": "Tyrosine-protein kinase Lck (LCK, Homo sapiens, UniProt P06239)", "note": "Compare with care: the assays were run in different laboratories."}
{"Compound": "O=C(Cc1ccc(OCc2ccccc2)cc1)NC1(C(=O)O)CCN(C(=O)c2ccc(-c3cccc(Cl)c3)cc2)CC1", "target": "LCK", "test": "enzyme activity, inhibitor", "setting": "10 µM", "quantity": "activity vs control", "result": "128%"}
{"Compound": "CNC1C[S+]2CC[S+]3CC[S+](C1)[Ru-4]321([N]=C=S)[n]2c3ccc(OC)cc3c3c4c(c5cc(F)c[n+]1c5c32)C(=O)NC4=O (stereo not shown)", "target": "LCK", "test": "KinomeScan", "setting": "0.1 µM", "scale": "baseline: untreated", "quantity": "remaining binding", "result": "98%"}
{"Compound": "CNC(=O)C[C@H](Cc1ccc(C#N)cc1)NC(=O)c1cc(-c2ccc(CN[C@H](C)c3ccc(C)cc3)o2)ccc1Cl", "target": "LCK", "test": "enzyme activity, inhibitor", "setting": "1 µM", "quantity": "activity vs control", "result": "95%"}
{"Compound": "NC(=O)[C@@H](O)C[C@H]1CCc2sc3ncnc(O[C@H]4CC[C@H](N5CCOCC5)CC4)c3c21", "target": "LCK", "test": "enzyme activity, inhibitor", "setting": "10 µM", "quantity": "inhibition", "result": "72%"}
{"Compound": "COc1ccc(NC(=O)Nc2ccc3c(c2)C(=O)N(C(C)CO)CC(C)C(CN(C)Cc2ccc4c(c2)OCO4)O3)cc1 (stereo not shown)", "target": "Tyrosine-protein kinase Lck, activated (LCK, Homo sapiens, UniProt P06239)", "test": "kinase activity", "setting": "0.03 µM", "scale": "baseline: control", "quantity": "remaining activity", "result": "92%"}
{"Compound": "COc1ncc2nc(C)n(Cc3ncc(S(N)(=O)=O)cc3F)c2c1-c1ccccc1", "target": "LCK", "test": "enzyme activity, inhibitor", "setting": "10 µM, safety panel", "quantity": "inhibition", "result": "-17.2%"}
{"Compound": "COc1ccc(O)cc1-c1c[nH]c2ncc(-c3cncc(C(=O)N(C)C)c3)cc12", "target": "LCK", "test": "binding, competition with immobilised ligand", "setting": "0.2 µM", "quantity": "inhibition", "result": "36.7%"}
{"Compound": "C=CC(=O)N1CCCC(n2c(=O)c3ncccc3n(Cc3ccc(Oc4ccccc4)cc3)c2=O)C1 (stereo not shown)", "target": "LCK", "test": "cell-free assay, competition with immobilised ligand", "setting": "1 µM", "quantity": "remaining binding", "result": "100%"}
{"Compound": "CCN1CCN(Cc2ccc(C(=O)Nc3ccc(C)c(NCc4cnc5[nH]ccc5c4OC)c3)cc2C(F)(F)F)CC1", "target": "LCK", "test": "binding, competition with immobilised ligand", "setting": "1 µM", "quantity": "remaining binding", "result": "0.3%"}
{"Compound": "Cc1ccc(C)c(-c2ccc3nc(NC(=O)C4CCCCC4)nn3c2)c1", "target": "LCK", "test": "enzyme activity, Dundee kinase panel", "setting": "10 µM", "quantity": "remaining activity", "result": "79%"}
{"Compound": "c1ccc2c(Nc3cc(C4CCC4)[nH]n3)nc(Nc3ccc4nc[nH]c4c3)nc2c1", "target": "LCK", "test": "enzyme activity, inhibitor", "setting": "0.25 µM", "quantity": "remaining activity", "result": "1%"}
{"Compound": "C[C@H]1CN(C(=O)c2cn(-c3ccnc(N)n3)c3cc(C#CC4(O)CCCCC4)ccc23)CCN1", "target": "LCK", "test": "enzyme activity, inhibitor, FRET", "setting": "1 µM", "quantity": "inhibition", "result": "7%"}
{"Compound": "C=CC(=O)N1Cc2nc(-c3cc(-c4cc(Cl)cnc4Cl)c(F)cc3F)n(-c3ccncn3)c2C1", "target": "LCK", "test": "enzyme activity, inhibitor", "setting": "1 µM", "quantity": "inhibition", "result": "-0.5%"}
{"Compound": "C=CC(=O)Nc1cccc(-c2cnc3[nH]cc(C(=O)NC(C)(C)C)c3n2)c1", "target": "LCK", "test": "enzyme activity, inhibitor", "setting": "0.1 µM", "quantity": "inhibition", "result": "13%"}
{"Compound": "Cc1ccc(-c2c(/C=C(\\C#N)C(=O)NC(C)C)n(CCCO)c3ncnc(N)c23)cc1", "target": "LCK", "test": "cell-free assay, competition with immobilised ligand", "setting": "1 µM", "quantity": "remaining binding", "result": "37%"}
{"Compound": "COc1c(OCCCN2CCOCC2)ccc2c1N=C(NC(=O)c1cnc(N)nc1)N1CCN=C21", "target": "LCK", "test": "kinase activity, inhibitor", "setting": "1 µM", "scale": "baseline: untreated control", "quantity": "remaining activity", "result": "93%"}
{"Compound": "Cc1cccc(O[C@H]2CCC[C@@H](C(C)CNCc3ccncc3)C2)c1 (relative stereo)", "target": "LCK", "test": "enzyme activity, inhibitor", "setting": "10 µM", "quantity": "inhibition", "result": "-7%"}
{"Compound": "Cc1cccc(-c2ccc3nc(NC(=O)C4CCCCC4)nn3c2)c1", "target": "LCK", "test": "enzyme activity, Dundee kinase panel", "setting": "10 µM", "quantity": "remaining activity", "result": "77%"}
{"Compound": "CC(C)=CC1OC(C)(C)C2C=C3C(=O)C(Cl)=CC(O)C3C3C(O)C4OC4C(=O)C132 (stereo not shown)", "target": "LCK", "test": "cell-free assay, competition with immobilised ligand", "setting": "10 µM", "quantity": "remaining binding", "result": "97%"}
{"Compound": "Nc1ncc(-c2cc(-c3cnn(CC(F)(F)F)c3)ncc2F)nc1C(=O)NC1CNCC(F)C1 (stereo not shown)", "target": "LCK", "test": "enzyme activity", "setting": "1 µM", "scale": "baseline: DMSO control", "quantity": "remaining activity", "result": "95.3%"}
{"Compound": "COc1c(Cl)cccc1Nc1c(-c2ccncc2C#C[C@@]2(C)CCCN2C(=O)/C=C/CN(C)C)[nH]c2c1C(=O)NCC2", "target": "LCK", "test": "binding, competition with immobilised ligand", "setting": "3 µM", "quantity": "remaining binding", "result": "38%"}
{"Compound": "COc1ccc(C(=O)/C=C/c2ccccc2-c2c[nH]c3ccc(C#N)cc23)c(O)c1", "target": "LCK", "test": "enzyme activity, inhibitor", "setting": "20 µM", "quantity": "inhibition", "result": "27%"}
{"note": "Excerpt of the above:"}
{"Compound": "CCN1CCN(Cc2ccc(C(=O)Nc3ccc(C)c(NCc4cnc5[nH]ccc5c4OC)c3)cc2C(F)(F)F)CC1", "target": "LCK", "test": "binding, competition with immobilised ligand", "setting": "1 µM", "quantity": "remaining binding", "result": "0.3%"}
{"Compound": "Cc1ccc(C)c(-c2ccc3nc(NC(=O)C4CCCCC4)nn3c2)c1", "target": "LCK", "test": "enzyme activity, Dundee kinase panel", "setting": "10 µM", "quantity": "remaining activity", "result": "79%"}
